Results gathered from unrelated publications.
A part holds a random share of what one study measured. Substitutions count along the parent as printed.

Set 1 — technique: RNA Bind-n-Seq; molecule type: RNA; matrix: in vitro; concentration: 365 nM; relative to: no-protein control; reading: higher = stronger binding
Target: RNA binding protein fox-1 homolog 2, RRM domain, GST-SBP tag (RBFOX2, Homo sapiens, UniProt O43251-10, residues 100-194)
Setting: natural RNA segment, single round, ends assumed
All sequences stand within: GGGAGUUCUACAGUCCGACGAUC … UGGAAUUCUCGGGUGCCAA
Target sequence (chain): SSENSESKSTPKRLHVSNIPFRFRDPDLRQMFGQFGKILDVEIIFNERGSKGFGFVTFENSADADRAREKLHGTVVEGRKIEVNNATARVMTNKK
| Sequence | RBNS enrichment (R) |
| --- | --- |
| CCAGCCUCUGUGACAGUGACUCCCUCUCCCCUUGUACAUACUCUCACACAGGUUCCCCUUGUACAUACAUGCACAUACACACCCAAACACACAUAGAGGACUCUGGAGCC | 1.31 |
| GGUGGGGGUCCUCUCUCCUGCCCCAGCUUCCACUCAGCCACCACAGUUGCCACACCAUGGGGUGGAGACGUGGGUCACCACGGGCUUGGGAGCAAGCGCCUUCUGCAGCA | 1.7 |
| UCUCGUUUACUGAUAAUAGUAAAGUUGAUUCAUGACCCCUGUCCUUUUUUUUCUACUGAUCUACCCAAGUGUAGGUGAGCCGCAGCAGGGAGUGAUUCCUAGAAGACGGA | 0.284 |
| AUCCACGGGACAAAAACAGCAAACUCCCUCAGACUUUGUCCAUGUAUAAACUUGAAGUGGUUGUGUUGUAGGGUUGCAGGUUUUUUGUUACGCUGCUGUCACUUUCUGUC | 0.662 |
| UAAAGUAUAUGUUUCUCAUGAGACUGAGGGUUUUAUUUUUAAAAUCCCCUUACAUUUCUAGCACACCUUGGCCAUCACAGUAGACAAAGAAUACAGAGAAGGCAGUGGGU | 0.634 |
| AAGUCACUGAUGCCAUUUCAUACAGGUGCUAGCUGUCUUUCUGUGGUUUGAAGGAAAGUUAUUGUCACGUGGUUUGUUUUCCUCAAAAUGAAGGGAUAGGACAAAAGAGA | 0.404 |
| UUCCUUUCACACAGUAUUUCAGGCUGCUGUGGUGAAUUUGAAUGGCAGAUCCUACAGUCAAUAGAUAAUGAUGAGACUUACAACAUUUCACAUCUCUCUUGAGAAUCCUU | 0.364 |
| AUAUUUGAAUUUCUUUGGGAAGAAAGUAAAUCUGAUGGCUCACUGAUUUUUGAAAAGCCUGAAUAAAAUUGGAAAGACUGGAAAGUUAGGAGAACUGACUAGCUAAACUG | 0.59 |
| CGAUUUUGAGUCCGAAUAAAGAAAGACCUAGUAACAGAUAGUUUUUUUUUGUUCAUUUUCUUCUACCAAGUAGAGGUUUAUGCCCUCAGAACUAAACUAGUAAAAAUAUC | 0.37 |
| GAUUGGGGGACCCUGCCUGCCUGGCUUGAGAACAGCCCUGCUGCCCUUUUGAGCCGAGAUUUUGAAGUGGAUGCCCGUCUUGCCAGAAAUGCUGUUCUCACCAGAAUGCC | 0.472 |
| UAAUGCUGCUGAUAAAGACGUACCCGAGACUGGGAAGAAAAAGAGGUUUACUUGGACUUACAGUUCCACAUGGCUGGGGAGGCCUCAGAAUCAUGGCGGGAGGUGAAAGG | 0.751 |
| UUUUAAAAAGUGCAAUCAAUAAAGCAGAGUUCUGUCAAGAAUGAGUAAGUUAACAGCCAGAGACAGACACUGUGCAGGCAUUGCAAAUAGAUGGAAUUACAGCAAAAUGU | 0.942 |

Set 2 — technique: protein binding microarray; molecule type: double-stranded DNA, one strand shown; matrix: in vitro; concentration: not given; relative to: not given; reading: higher = stronger binding
Target: Histone acetyltransferase KAT6A, winged helix 1, GST fusion (KAT6A, Homo sapiens, UniProt Q92794, residues 1-85)
Setting: 8-mer, flanks averaged, mean of 2 arrays, mostly near background
Construct (chain): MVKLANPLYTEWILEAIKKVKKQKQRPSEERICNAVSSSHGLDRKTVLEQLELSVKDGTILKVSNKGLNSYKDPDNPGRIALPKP
| Sequence | E-score |
| --- | --- |
| AGGGACCG | 0.104 |
| GAGAGATA | -0.15 |
| CACTTTCG | -0.0824 |
| CCCGATAA | 0.0463 |
| ATAGGCAT | -0.0244 |
| AGGACAGA | -0.235 |
| ACAACCAA | -0.0995 |
| ACGTGCCA | -0.191 |
| AAATCTTA | -0.114 |
| TAGATGGA | -0.194 |
| TAATTATA | -0.0898 |
| ATTACTCC | -0.122 |
| CCTCGCAA | -0.0865 |
| ATACGTTG | 0.0315 |
| CATCGGTC | 0.117 |
| CACGTATA | -0.0491 |
| ATCAGAAT | -0.243 |
| GGACAGCC | 0.19 |
| AAACACAC | -0.0202 |
| GTTCGGTA | 0.0885 |
| CCCTCAAG | -0.214 |
| CCGGATAG | 0.0882 |
| GGGGTAAC | -0.143 |
| TAAATTTA | -0.0783 |
| CAATCAGA | -0.182 |

Set 3 — technique: DHFR PCA, deep sequencing; matrix: yeast; with: (+)-ABA 0.11 µM; relative to: wild-type fitted maximum; reading: higher = stronger binding
Target: ABI1, truncated, D143A, DHFR fusion (Arabidopsis thaliana)
Setting: methotrexate growth selection, single substitutions
Starting sequence: PYL1, truncated, DHFR fusion (Arabidopsis thaliana); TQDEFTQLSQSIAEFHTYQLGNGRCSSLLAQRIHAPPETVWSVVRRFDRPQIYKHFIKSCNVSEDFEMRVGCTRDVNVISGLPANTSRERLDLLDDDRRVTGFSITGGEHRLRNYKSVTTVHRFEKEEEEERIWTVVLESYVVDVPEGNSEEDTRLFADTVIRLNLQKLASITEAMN; partner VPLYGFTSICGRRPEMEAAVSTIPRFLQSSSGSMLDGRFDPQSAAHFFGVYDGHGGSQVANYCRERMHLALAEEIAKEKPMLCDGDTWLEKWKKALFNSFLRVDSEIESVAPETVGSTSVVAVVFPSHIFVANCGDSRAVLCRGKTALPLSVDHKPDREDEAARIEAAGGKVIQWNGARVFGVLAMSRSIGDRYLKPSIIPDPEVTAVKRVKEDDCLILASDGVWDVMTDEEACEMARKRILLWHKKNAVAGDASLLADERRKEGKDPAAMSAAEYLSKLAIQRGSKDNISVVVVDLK
| Variant | relative binding score [%] |
| --- | --- |
| N177H | 26.2 |
| A170T | 10.5 |
| D3P | 25.4 |
| S27T | 1.23 |
| Y53C | -0.633 |
| C25M | 6.24 |
| H55N | 20.4 |
| R74G | 19.4 |
| E127I | 21.8 |
| L91E | 0.168 |
| A158T | 19.2 |
| D92G | 3.49 |
| D48K | -10.9 |
| E109H | 3.24 |
| F157R | 7.79 |
| S104Y | -7.79 |

Set 4 — technique: RNAcompete; molecule type: RNA; matrix: in vitro; concentration: 20 nM; setting: 7-mer, probes averaged, single round; relative to: mean of 7-mers; reading: higher = stronger binding
Target: PABPC1L2, full length, GST fusion (mouse, UniProt A0ABA7IW68)
Construct (chain): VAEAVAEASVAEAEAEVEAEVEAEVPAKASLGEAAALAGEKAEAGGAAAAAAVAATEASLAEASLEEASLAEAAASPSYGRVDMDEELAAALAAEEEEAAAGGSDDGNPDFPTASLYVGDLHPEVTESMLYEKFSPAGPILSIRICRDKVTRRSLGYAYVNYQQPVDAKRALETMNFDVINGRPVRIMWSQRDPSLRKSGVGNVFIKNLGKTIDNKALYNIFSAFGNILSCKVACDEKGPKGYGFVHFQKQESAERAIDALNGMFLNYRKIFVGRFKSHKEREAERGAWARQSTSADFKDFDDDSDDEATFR
| Sequence | 7-mer Z-score |
| --- | --- |
| GCGAGAG | 0.126 |
| UUGUGGU | -0.412 |
| UCACAGU | -0.255 |
| UUACAAU | -0.184 |
| GGCCAAG | 0.0442 |
| AUUAAUG | -0.0808 |
| UAGUGGG | 0.274 |
| GUCAGGU | -0.0808 |
| AUCAUUC | -0.248 |
| AUUACAG | -0.0174 |
| GGCUUAA | 0.000733 |
| ACUAUUU | -0.151 |
| CCCCCUA | -0.405 |
| CCACGUG | -0.197 |
| GUGUAGA | 0.0297 |
| CGGGUGU | 0.046 |
| GAAGAAG | 0.236 |
| UAGCCCG | -0.11 |
| CCAUUGG | -0.186 |
| GUUGUGA | -0.11 |

Set 5 — technique: protein-binding microarray; molecule type: double-stranded DNA, one strand shown; matrix: in vitro; concentration: 2540 nM top; setting: 60-bp whole probe; with: salmon DNA 0.4 mg/ml; relative to: random background probes; reading: higher = stronger binding; all sequences stand within: GCCTAGCAC … GTCTTGATTCGCTTGACGCTGCTG
Target: Interferon regulatory factor 3, full length, phosphomimetic (IRF3, Homo sapiens, UniProt Q14653, residues 1-427, S386D/S396D/S398D/S402D/T404D/S405D)
Construct (chain): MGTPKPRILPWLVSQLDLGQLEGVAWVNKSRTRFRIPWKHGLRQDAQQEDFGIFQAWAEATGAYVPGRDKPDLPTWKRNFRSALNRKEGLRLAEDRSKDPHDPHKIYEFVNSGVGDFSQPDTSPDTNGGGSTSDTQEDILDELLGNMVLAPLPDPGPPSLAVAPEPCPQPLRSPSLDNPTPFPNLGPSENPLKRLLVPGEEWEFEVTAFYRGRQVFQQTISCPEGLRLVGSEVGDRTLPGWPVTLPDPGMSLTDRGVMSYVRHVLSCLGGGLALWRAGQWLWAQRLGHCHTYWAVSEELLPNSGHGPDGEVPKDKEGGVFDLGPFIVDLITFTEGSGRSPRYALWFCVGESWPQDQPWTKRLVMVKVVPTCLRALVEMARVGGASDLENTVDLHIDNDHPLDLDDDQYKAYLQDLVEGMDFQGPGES
| Sequence | fitted relative affinity |
| --- | --- |
| GACATCCCCAGTCTCATATTGTGCTAG | 0.473 z-score |
| GAATGTCTTCCCCTCTCATTGTGCTAG | 0.556 z-score |
| GACGAACTGACACTGGAGACGTGCTAG | -0.0239 z-score |
| TTAAGTTTCGGTATCGGTTAGTGCTAG | 9.56 z-score |
| TTAGGTATCTTTCTCCTTTAGTGCTAG | 3.08 z-score |
| GACGATCTCAGTCTCTAGACGTGCTAG | 0.881 z-score |
| TCATTTATGCACTCTTTAACTGTGCTA | 1.35 z-score |
| GACGGACTGCTTATCCTTACGTGCTAG | -0.0278 z-score |
| TTAGATATCGGGAATGGATTAGTGCTA | -0.182 z-score |
| TTAGGTATCGGTCTCGGTTAGTGCTAG | 4.43 z-score |
| GACGCTATCCTTTTCCTGACGTGCTAG | 4.67 z-score |
| GACGGCCTGGGACTGGGGACGTGCTAG | -1.24 z-score |
| TTAAGTTTCCTTATCCTTTAGTGCTAG | 8.88 z-score |
| TTATGTATCGGGTATCGGTTAGTGCTA | 2.03 z-score |
| TCACCTCTGTAAGTCAGACTGTGCTAG | -0.0175 z-score |
| TTAGGTTTCCTTATCGTTTAGTGCTAG | 8.9 z-score |
| GTCCTCCTCTCTCTTTCCACGTGCTAG | 1.4 z-score |
| TTAGATATCGGGAATCGATTAGTGCTA | -0.0548 z-score |
| GACGGTATCGCACTGGGGACGTGCTAG | 1.01 z-score |
| TTAGGTATCCTTCTACTTTAGTGCTAG | 5.04 z-score |
| TTAGGTATCTGACTGGGTTAGTGCTAG | 0.0678 z-score |
| TCAGGTCTCCCTTGAGGACTGTGCTAG | 0.956 z-score |
| GACGATCTCAGCCTCGAGACGTGCTAG | 0.105 z-score |

Set 6 — technique: universal PBM; molecule type: double-stranded DNA, one strand shown; matrix: in vitro; concentration: 600 nM; reading: higher = stronger binding
Target: Sal-like protein 4, full length isoform A (SALL4, Homo sapiens, UniProt Q9UJQ4, residues 1-1053)
UniProt Q9UJQ4, sequence (whole entry, looked up): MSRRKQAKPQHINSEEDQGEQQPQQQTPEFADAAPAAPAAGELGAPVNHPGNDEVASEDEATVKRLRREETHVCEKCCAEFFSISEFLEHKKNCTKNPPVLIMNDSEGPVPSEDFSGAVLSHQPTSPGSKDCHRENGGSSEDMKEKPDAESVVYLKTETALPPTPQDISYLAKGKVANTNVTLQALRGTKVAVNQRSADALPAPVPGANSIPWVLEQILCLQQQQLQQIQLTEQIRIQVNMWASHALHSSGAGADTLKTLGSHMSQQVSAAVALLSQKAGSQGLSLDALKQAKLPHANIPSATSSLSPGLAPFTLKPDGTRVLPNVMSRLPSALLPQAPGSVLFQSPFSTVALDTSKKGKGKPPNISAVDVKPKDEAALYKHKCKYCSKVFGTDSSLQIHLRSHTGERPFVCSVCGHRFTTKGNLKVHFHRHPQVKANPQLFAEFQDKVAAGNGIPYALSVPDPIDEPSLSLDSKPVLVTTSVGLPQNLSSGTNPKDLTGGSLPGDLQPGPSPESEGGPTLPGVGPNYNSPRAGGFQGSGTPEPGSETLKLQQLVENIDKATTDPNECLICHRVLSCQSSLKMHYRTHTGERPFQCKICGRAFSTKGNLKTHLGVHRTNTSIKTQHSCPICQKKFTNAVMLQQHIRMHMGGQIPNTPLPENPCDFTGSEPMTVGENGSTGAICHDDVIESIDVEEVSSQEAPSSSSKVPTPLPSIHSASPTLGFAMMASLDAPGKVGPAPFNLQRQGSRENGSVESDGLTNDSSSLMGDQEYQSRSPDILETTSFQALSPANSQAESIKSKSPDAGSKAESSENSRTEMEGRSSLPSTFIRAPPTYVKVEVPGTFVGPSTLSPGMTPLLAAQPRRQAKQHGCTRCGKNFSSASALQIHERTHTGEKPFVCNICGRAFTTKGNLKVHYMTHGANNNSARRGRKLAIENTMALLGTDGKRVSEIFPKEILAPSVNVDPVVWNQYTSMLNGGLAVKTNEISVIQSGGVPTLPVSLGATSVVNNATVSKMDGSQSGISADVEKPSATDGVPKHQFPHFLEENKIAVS
Setting: 8-mer, flanks averaged, mean of replicates
| Sequence | E-score |
| --- | --- |
| ATCGTCTG | -0.135 |
| CTCCCGGA | -0.305 |
| AACAGCGC | -0.222 |
| ACACGTAC | 0.0574 |
| AAGTAGTC | -0.00307 |
| CTCTTCGC | -0.11 |
| AGGGGTAG | -0.199 |
| AAGTAGGC | -0.0394 |
| GGGTGGAA | -0.0203 |
| ATTATTAA | 0.442 |
| CACTTGCC | -0.156 |
| CTTACACC | -0.258 |
| ACATCGCA | -0.144 |
| CTTGTCCA | 0.0225 |
| GCAGCAAC | -0.0955 |
| CAAACCGA | -0.113 |
| GTTCTGAA | 0.119 |
| CCGATCAA | -0.0363 |
| CAGGTTGC | -0.0351 |
| CAAGAGCC | -0.167 |
| TGGACCAA | -0.00299 |
| AAACGCGC | -0.305 |
| ACTAGGTG | -0.178 |
| GATAGAGA | 0.0386 |
| AACCCGTG | -0.294 |

A few entries again (set 2):
| Sequence | E-score |
| --- | --- |
| CCTCGCAA | -0.0865 |
| ATACGTTG | 0.0315 |
| CATCGGTC | 0.117 |
| CACGTATA | -0.0491 |
| ATCAGAAT | -0.243 |
| GGACAGCC | 0.19 |
| AAACACAC | -0.0202 |
| GTTCGGTA | 0.0885 |
| CCCTCAAG | -0.214 |
| CCGGATAG | 0.0882 |
| GGGGTAAC | -0.143 |
| TAAATTTA | -0.0783 |
| CAATCAGA | -0.182 |
